# Published values gathered from unrelated publications.
# Compare with care: the assays were run in different laboratories. Numbers after ± are the reported error.
SMILES,test system,setting,tissue uptake
CCCC[C@H](NC(=O)CNC(=O)CNC(=O)[C@H](CCCCNC(=O)[C@H](CC(=O)O)NC(=O)C(C)c1ccc(CC(C)C)cc1)NC(=O)CN1CCN(CC(=O)O)CCN(CC(=O)O)CCN(CC(=O)O)CC1)C(=O)N[C@H]1CC(=O)NCCCC[C@@H](C(N)=O)NC(=O)[C@H](Cc2c[nH]c3ccccc23)NC(=O)[C@H](CCCNC(=N)N)NC(=O)[C@@H](Cc2ccccc2)NC(=O)[C@H](Cc2c[nH]cn2)NC1=O (some centres unmarked) [lutetium-177 labelled],"C57 mice, tumour-bearing, lung","intravenous, 0.037 MBq, 0.5 h",4.75 ± 0.8 %ID/g
Cc1cc(C)n(CCN(CCN)CCCCCCNC(=O)[C@@H](N)Cc2c[nH]c3ccccc23)n1.[99Tc+].[C-]#[O+].[C-]#[O+].[C-]#[O+],"BALB/c nude mice, A549 xenograft, spleen","intravenous, 15 min",2.21 ± 0.01 %IA/g
O=C(NCC1OC2CCC=CCCC2O1)c1ccc([18F])nc1 (centres unmarked),"healthy female BALB/c nude mice, spleen","intravenous, 7.4 MBq per mouse, 10 min",4.9 ± 1.3 %ID/g
Cc1cc(C)n(CCN(CCN)CCCCCCNC(=O)[C@@H](N)Cc2c[nH]cn2)n1.[99Tc+].[C-]#[O+].[C-]#[O+].[C-]#[O+],"BALB/c nude mice, A549 xenograft, heart","intravenous, 24 h",0.29 ± 0.06 %IA/g
COc1ccc2c(c1)C(C)(C)C(/C=C/C1=C(Oc3ccc(C(=O)NCCCCOc4cc(CN(Cc5ccccn5)Cc5ccccn5)cc(CN(Cc5ccccn5)Cc5ccccn5)c4)cc3)C(=C/C=C3/N(CCCCS(=O)(=O)[O-])c4ccc(OC)cc4C3(C)C)CCC1)=[N+]2CCCCS(=O)(=O)[O-].O=[N+]([O-])[O-].O=[N+]([O-])[O-].[99Tc+].[C-]#[O+].[C-]#[O+].[C-]#[O+].[Zn+2],"BALB/c mice, S. aureus myositis, spleen",12 h post-injection,9.42 %ID/g
COc1ccc(Nc2nc(Nc3ccc(OCCOCC[18F])cc3)ncc2Br)cc1,"ICR mice, S180 tumour, intestine","intravenous, 30 min, added: PF-562271 33 mg/kg oral block",3.33 ± 0.07 %ID
CCCC[C@H](NC(=O)COCCOCCNC(=O)CN1CCN(CC(=O)O)CCN(CC(=O)O)CC1)C(=O)N[C@H]1CC(=O)NCCCC[C@@H](C(N)=O)NC(=O)[C@H](Cc2c[nH]c3ccccc23)NC(=O)[C@H](CCCNC(=N)N)NC(=O)[C@@H](Cc2ccccc2)NC(=O)[C@H](Cc2c[nH]cn2)NC1=O [fluorine-18 labelled],"C57 mice, B16/F10 melanoma, blood","intravenous, 1 h, added: NDP-MSH 10 µg",0.77 ± 0.21 %ID/g
CC(C)C[C@H](NC(=O)[C@@H](CCCCNC(=O)[C@@H](Cc1ccccc1)NC(=O)CCCCCCCNC(=O)CN1CCN(CC(=O)O)CCN(CC(=O)O)CCN(CC(=O)O)CC1)NC(=O)[C@H](Cc1ccc(O)cc1)NC(=O)[C@H](CO)NC(=O)[C@H](Cc1c[nH]c2ccccc12)NC(=O)[C@H](Cc1c[nH]cn1)NC(=O)[C@@H]1CCC(=O)N1)C(=O)N[C@@H](CCCNC(=N)N)C(=O)N1CCC[C@H]1C(=O)NCC(N)=O [indium-111 labelled],"male athymic nude mice, DU-145 prostate cancer xenograft, kidney","intravenous, 0.037 MBq, 2 h",7.83 ± 1.07 %ID/g
